Experimental data from different studies.
Each numbered part is a random draw from the data of one study; scales do not carry over between parts. Positions count from the first letter of the parent shown.

Set 1
Target: CCND3, cyclin fold, Cln2 fusion (human)
Technique: yeast growth competition, sequencing
Sample: yeast
Setting: weak parent motif
Relative to: not given
Direction: higher = stronger binding
Parent: E2F1 docking peptide (human); PPVKRRLDLETDH
| Substitution | normalised enrichment score |
| --- | --- |
| PPVKRRLDLETDW [H13W] | 0.127 |
| PPVKRRLDLGTDH [E10G] | 0.144 |
| PPVKRRLDLETKH [D12K] | 0.16 |
| PPVKRRLDLETCH [D12C] | 0.125 |
| PPEKRRLDLETDH [V3E] | 0.00143 |
| PPVKRRLLLETDH [D8L] | 0.192 |

Set 2
Target: Interferon regulatory factor 5, full length, phosphomimetic (IRF5, Homo sapiens, UniProt Q13568-2, residues 1-514, S451D/S453D/S456D/S462D)
Technique: protein-binding microarray
Form: double-stranded DNA, one strand shown
Sample: in vitro
Concentration: 940 nM top
Setting: 60-bp whole probe
Together with: salmon DNA 0.4 mg/ml
Relative to: random background probes
Direction: higher = stronger binding
Constant ends, left off below: GCCTAGCAC … GTCTTGATTCGCTTGACGCTGCTG
| Sequence | fitted relative affinity [z-score] |
| --- | --- |
| TCACCTTTCGGAATACCACTGTGCTAG | 1.7 |
| GAATGTGTCTTAAATAGGAGAGTGCTA | -0.191 |
| GACGATATGGGGTTTCGAGACGTGCTA | 2.06 |
| TTAGAACTGGGTCTCGGTTAGTGCTAG | 1.32 |
| GACGATTTCATTATCGAGACGTGCTAG | 0.834 |

Set 3
Target: Histone acetyltransferase KAT6A, winged helix 1, GST fusion (KAT6A, Homo sapiens, UniProt Q92794, residues 1-85)
Technique: protein binding microarray
Form: double-stranded DNA, one strand shown
Sample: in vitro
Concentration: not given
Setting: 8-mer, flanks averaged, mean of 2 arrays, mostly near background
Relative to: not given
Direction: higher = stronger binding
Construct (chain): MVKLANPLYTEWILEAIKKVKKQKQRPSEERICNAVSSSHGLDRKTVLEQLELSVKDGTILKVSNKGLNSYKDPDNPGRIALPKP
| Sequence | E-score |
| --- | --- |
| CTGAACTA | -0.0484 |
| AGACATCT | -0.136 |
| GCAATACC | 0.175 |
| ATACCGCA | 0.3 |
| GCACGCCC | 0.147 |
| ATGAGATG | -0.184 |
| GAGGGAAA | -0.221 |

Other studies, line by line
| Molecule | target | assay | test system | conditions | how to read | quantity | result |
| --- | --- | --- | --- | --- | --- | --- | --- |
| PhoQ, residues 284 288 289 292 302 303 GTAMQF | PhoP, residues 12 14 15 18 19 LWHCS (Escherichia coli, UniProt P23836) | Sort-seq, measured: YFP reporter | E. coli | PhoQ-PhoP variant library, together with: 10 µM Mg2+ | relative to: high Mg2+ state, higher = stronger signaling | fold induction | 1.16 |

A few entries again (set 2):
| Sequence | fitted relative affinity [z-score] |
| --- | --- |
| TCACCTTTCGGAATACCACTGTGCTAG | 1.7 |
| GAATGTGTCTTAAATAGGAGAGTGCTA | -0.191 |
